Assay results from different studies.
Each numbered part is a random draw from the data of one study; scales do not carry over between parts. Substitutions count along the parent as printed.

Sample 1
Target: OGT, full length, His-tagged (human)
Technique: phage display, sequencing
Sample: in vitro
Tested at: 1 µg OGT
Notes: single substitutions, 15-mer displayed peptide, unchanged parent 5.27
Relative to: input library
Direction: higher = stronger binding
Starting sequence: peptide; GDFPVMFMPKYSIIY; partner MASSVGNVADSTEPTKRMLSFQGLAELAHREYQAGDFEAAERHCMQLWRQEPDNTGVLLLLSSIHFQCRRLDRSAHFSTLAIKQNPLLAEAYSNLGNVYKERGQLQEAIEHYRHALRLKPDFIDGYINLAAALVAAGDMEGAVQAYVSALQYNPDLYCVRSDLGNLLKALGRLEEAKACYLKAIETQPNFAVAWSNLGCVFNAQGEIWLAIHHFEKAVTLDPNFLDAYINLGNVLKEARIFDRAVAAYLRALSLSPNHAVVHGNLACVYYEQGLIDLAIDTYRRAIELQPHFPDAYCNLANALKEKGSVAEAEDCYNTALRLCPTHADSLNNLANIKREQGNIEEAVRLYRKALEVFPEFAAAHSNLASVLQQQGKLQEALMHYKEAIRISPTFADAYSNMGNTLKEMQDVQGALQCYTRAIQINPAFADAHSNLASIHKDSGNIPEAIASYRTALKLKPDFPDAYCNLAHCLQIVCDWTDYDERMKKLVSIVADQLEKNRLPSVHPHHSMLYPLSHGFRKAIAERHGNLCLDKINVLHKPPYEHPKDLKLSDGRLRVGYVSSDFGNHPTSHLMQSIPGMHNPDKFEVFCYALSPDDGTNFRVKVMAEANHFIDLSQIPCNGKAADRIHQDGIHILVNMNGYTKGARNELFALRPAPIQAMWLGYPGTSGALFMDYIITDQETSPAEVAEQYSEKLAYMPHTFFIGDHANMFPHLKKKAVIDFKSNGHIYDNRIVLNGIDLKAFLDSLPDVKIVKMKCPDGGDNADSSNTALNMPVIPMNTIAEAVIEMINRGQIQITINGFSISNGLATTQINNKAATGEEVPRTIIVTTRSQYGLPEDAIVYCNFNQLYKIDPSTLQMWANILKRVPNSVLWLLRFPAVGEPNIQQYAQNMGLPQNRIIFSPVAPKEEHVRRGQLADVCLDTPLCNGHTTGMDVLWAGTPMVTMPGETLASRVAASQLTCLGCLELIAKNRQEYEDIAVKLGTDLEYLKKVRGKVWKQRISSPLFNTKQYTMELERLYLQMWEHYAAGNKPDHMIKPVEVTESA
Variant	fold enrichment [fold]
I13F	1.56
K10G	1.24
F3W	6.71
M6W	4.1
P4W	0.11
K10A	1.46
Y15T	1.57
F3P	5.62

Sample 2
Target: Centromere-binding protein 1, full length, N-terminal tag (CBF1, Saccharomyces cerevisiae, UniProt P17106, residues 1-351)
Chain of UniProt P17106 (whole entry, looked up): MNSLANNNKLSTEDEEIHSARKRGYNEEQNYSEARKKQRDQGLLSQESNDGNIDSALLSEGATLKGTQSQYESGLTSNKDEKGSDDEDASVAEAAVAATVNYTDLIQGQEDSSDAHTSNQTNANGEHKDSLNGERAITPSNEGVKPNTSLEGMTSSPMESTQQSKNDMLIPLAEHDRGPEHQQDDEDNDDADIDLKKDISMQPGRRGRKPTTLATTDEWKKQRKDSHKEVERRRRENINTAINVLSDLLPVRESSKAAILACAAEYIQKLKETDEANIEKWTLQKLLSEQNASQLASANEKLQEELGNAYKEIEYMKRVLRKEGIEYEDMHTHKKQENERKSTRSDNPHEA
Technique: protein-binding microarray
Molecule type: double-stranded DNA, one strand shown
Sample: in vitro
Tested at: 0.8 µM
Notes: whole 60-bp probe, no competitor
Direction: higher = stronger binding
All sequences stand within: … GTCTTGATTCGCTTGACGCTGCTG
Oligonucleotide	fluorescence intensity [a.u.]
CTAGTTATCCTAAATGACATCACGATGATAAATTTC	764
CTAGGTTACAAAATTTACATCATGAGTTTACGGTTC	581
TGTACGAAGCTATGTCACGTCTTTATAGTAGTTAGG	728
CTACTAAGCCCTTTACACGTTATCTGTGATCCTTTC	554
CTATGTGTGATGGACATCAGCATTCAATGTATATTC	506
GAAGAGAACGAATTCCAGGTGATTCCGATAAGATAG	594
GAACAAATTTACAATGGAGTCACCTAAGCATTTTAG	545
CTAAATAGGAAATATCACGCTACCTGACAAAAATTC	887

Sample 3
Target: TAR DNA-binding protein 43, full length, His tag (TARDBP, Homo sapiens, UniProt Q13148, residues 1-414)
Technique: RNA Bind-n-Seq
Molecule type: RNA
Sample: in vitro
Tested at: 20 nM
Notes: 6-mer, flanks averaged, single round
With: 150 mM LiCl
Relative to: input library
Direction: higher = stronger binding
Oligonucleotide	6-mer enrichment (R)
GAGAGU	1.12
UCCGGC	0.902
GUAACG	0.901
UGACAU	0.922
GAAAAU	0.881
ACACGG	0.853
ACGCGC	0.908
GCAACC	0.871

Further values, each from its own experiment
Starting sequence: viral docking peptide; CKVKRKLFGSENI; partner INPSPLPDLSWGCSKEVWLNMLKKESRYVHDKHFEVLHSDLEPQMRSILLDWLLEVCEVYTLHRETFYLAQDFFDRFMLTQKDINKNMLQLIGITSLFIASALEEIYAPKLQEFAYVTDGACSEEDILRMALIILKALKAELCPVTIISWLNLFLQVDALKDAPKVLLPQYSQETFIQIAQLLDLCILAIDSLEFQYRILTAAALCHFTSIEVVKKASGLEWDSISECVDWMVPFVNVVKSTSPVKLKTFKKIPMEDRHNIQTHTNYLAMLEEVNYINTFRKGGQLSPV
Variant	target	test	test system	conditions	how to read	endpoint	value
CKVKAKAFGSENI [R5A L7A]	CCNE2, cyclin fold, Cln2 fusion (human)	yeast growth competition, sequencing	yeast	strong parent motif	relative to: not given, higher = stronger binding	normalised enrichment score	0.25
